Results of several laboratories.
Parts stem from different laboratories: compare values within a part only. Positions count from the first letter of the parent shown.

Block 1
Target: Prothrombin, mature alpha-thrombin (F2, Homo sapiens, UniProt P00734)
Technique: aptamer microarray, sandwich
Molecule type: DNA with 2'F-ANA
Sample: in vitro
Tested at: 200 nM
Setting: whole 15-mer aptamer, many near background
Added: Cy3 exosite-II aptamer, 400 nM
Reading: higher = stronger binding
Oligonucleotide: GGTTGGTGTGGTTGG
`2'F-ANA at 1 5 7 8 13 15`: “mean fluorescence intensity” 62.2 a.u.
`2'F-ANA at 1 2 4 9 10 11` — result for “mean fluorescence intensity”: 49.3 a.u.
`2'F-ANA at 2 3 6 7 9 11 12 13`: “mean fluorescence intensity” 728 a.u.
`2'F-ANA at 4 6 10 13 14 15` — result for “mean fluorescence intensity”: 56.6 a.u.
For `2'F-ANA at 2 4 5 7 8 14 15`, “mean fluorescence intensity” read 50.9 a.u.
Under “mean fluorescence intensity”, `2'F-ANA at 2 3 5 7 8 9 11 13 15` is recorded as 77.9 a.u.

Block 2
Target: Ras GTPase-activating protein-binding protein 1, full length (G3BP1, Homo sapiens, UniProt Q13283)
UniProt Q13283, sequence (whole entry, looked up): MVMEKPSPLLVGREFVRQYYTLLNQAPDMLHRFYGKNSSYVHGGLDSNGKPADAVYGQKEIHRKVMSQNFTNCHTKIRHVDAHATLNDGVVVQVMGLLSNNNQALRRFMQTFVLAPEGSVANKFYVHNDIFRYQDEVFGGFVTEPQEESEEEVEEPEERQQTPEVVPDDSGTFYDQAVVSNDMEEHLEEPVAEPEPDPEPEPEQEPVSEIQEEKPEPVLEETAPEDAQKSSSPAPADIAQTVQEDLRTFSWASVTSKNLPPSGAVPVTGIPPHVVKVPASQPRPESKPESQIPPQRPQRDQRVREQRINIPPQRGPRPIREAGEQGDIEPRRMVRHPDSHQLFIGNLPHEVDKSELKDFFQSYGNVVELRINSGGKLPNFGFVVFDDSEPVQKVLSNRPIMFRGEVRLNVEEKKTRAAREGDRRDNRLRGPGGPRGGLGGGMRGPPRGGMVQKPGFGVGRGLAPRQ
Technique: RNA Bind-n-Seq
Molecule type: RNA
Sample: in vitro
Tested at: 200 nM
Setting: whole 134-nt RNA, ends assumed
Added: 150 mM KCl
Baseline: input library
Reading: higher = stronger binding
`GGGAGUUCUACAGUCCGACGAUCUAACUUUAGAGUAGGAUCUGAUGGAUAUGGCAGUGGACGUGGAUUUGGGGAUGGCUAUAAUGGGUAUGGAGGAGGACCUGGAGGUGGCAAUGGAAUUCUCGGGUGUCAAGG` gave a log2 enrichment of 0.532.
The log2 enrichment of `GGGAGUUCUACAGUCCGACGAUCUAACUUUUGAGGAGGAUCUGAUGGAUAUGGCAGUGGACGUGGAUUUGGGGAUGGCUAUAAUGGGUAUGGAGGAGGACCUGGAGGUGGCAAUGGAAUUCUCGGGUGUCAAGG` is reported as 0.523.
The log2 enrichment of `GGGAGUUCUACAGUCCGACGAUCCUGUGCUACACAUCGUAUGUACCGAAUCGGGGAAAAAAAGGGGAAAAAGGGGAAAAAGGGGAAAGUAUUAUGUUACGCCGUUCGGAUCUGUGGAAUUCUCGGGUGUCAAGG` is reported as -0.179.
`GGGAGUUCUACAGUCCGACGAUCUCCUGUGCUACACAUCGUAUGUACCGAAUCGGGGAAAGGGGAAAAAGGGGAAAAAGGGGAAAGUAUUAUGUUACGCCGUUCGGAUCUGCAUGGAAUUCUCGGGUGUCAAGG` has a log2 enrichment of 0.596.
With `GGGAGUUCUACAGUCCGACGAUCACCAUGCAGGUGGGCAUCUUUGGGAAGUGGGGCAAGGGGGGGAUAGGGAGGGGGGUAACACUUUGGGAACAGGUUGUCCCAGGUCGUUUCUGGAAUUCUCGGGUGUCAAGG` the log2 enrichment was 1.12.
`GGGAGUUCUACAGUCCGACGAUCAAGUCCUGUGCUACACAUCGUAUGUACCGAAUCGGGGUGGGGAGGGGAAAAAGGGGAAAGUAUUAUGUUACGCCGUUCGGAUCUGCACUUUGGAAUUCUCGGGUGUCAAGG` gave a log2 enrichment of 0.523.
The log2 enrichment of `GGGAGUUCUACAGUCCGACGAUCUGCUGCGGAAGGGCUCUGGCACUCUGUGUGAGGCCUUGCUGAUGGUGCAGGCCUUCCACGCCAACAUCAUCUUCCCCAACAAGCAAGAGCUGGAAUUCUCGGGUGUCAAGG` is reported as 0.118.
With `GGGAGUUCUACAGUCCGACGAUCUGGCCCUGGUGGCAUGCGGGGAGGAAGAGGUGGCCUCAUGGAUCGUGGUGGUCCCGUUGGAAUGUUCAGAGGUGGCCGUGGUGGAGACAGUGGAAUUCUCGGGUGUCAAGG` the log2 enrichment was 0.148.

Block 3
Target: ABI1, truncated, D143A, DHFR fusion (Arabidopsis thaliana)
Technique: DHFR PCA, deep sequencing
Sample: yeast
Setting: methotrexate growth selection, single substitutions
Added: (+)-ABA 200 µM
Baseline: wild-type fitted maximum
Reading: higher = stronger binding
Starting sequence: PYL1, truncated, DHFR fusion (Arabidopsis thaliana); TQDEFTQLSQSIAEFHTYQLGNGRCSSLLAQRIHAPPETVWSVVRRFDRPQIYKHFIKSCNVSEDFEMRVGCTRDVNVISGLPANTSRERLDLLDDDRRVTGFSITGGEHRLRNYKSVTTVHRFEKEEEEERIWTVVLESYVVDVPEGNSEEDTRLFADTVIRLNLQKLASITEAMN
`S104I`: “relative binding score” 42.9%.
`I52D` — result for “relative binding score”: 99.7%.
For `Y18Q`, “relative binding score” read 87.2%.
`P50E`: “relative binding score” -6.61%.
For `P37I`, “relative binding score” read 94%.
`K168P`: “relative binding score” 2.8%.

Other studies, line by line
For `PhoQ, residues 284 288 289 292 302 303 SCKMEA`, the fold induction was 13.4 (PhoP, residues 12 14 15 18 19 NQCAL (Escherichia coli, UniProt P23836); Sort-seq, refers to: YFP reporter; E. coli; PhoQ-PhoP variant library, added: 10 µM Mg2+; baseline: high Mg2+ state, higher = stronger signaling).
